# Published values gathered from unrelated publications.
# Numbered parts are unrelated; each lists some results of a single study.

# Block 1
# Target: Sal-like protein 4, full length isoform A (SALL4, Homo sapiens, UniProt Q9UJQ4, residues 1-1053)
# Sequence of UniProt Q9UJQ4 (whole entry, looked up): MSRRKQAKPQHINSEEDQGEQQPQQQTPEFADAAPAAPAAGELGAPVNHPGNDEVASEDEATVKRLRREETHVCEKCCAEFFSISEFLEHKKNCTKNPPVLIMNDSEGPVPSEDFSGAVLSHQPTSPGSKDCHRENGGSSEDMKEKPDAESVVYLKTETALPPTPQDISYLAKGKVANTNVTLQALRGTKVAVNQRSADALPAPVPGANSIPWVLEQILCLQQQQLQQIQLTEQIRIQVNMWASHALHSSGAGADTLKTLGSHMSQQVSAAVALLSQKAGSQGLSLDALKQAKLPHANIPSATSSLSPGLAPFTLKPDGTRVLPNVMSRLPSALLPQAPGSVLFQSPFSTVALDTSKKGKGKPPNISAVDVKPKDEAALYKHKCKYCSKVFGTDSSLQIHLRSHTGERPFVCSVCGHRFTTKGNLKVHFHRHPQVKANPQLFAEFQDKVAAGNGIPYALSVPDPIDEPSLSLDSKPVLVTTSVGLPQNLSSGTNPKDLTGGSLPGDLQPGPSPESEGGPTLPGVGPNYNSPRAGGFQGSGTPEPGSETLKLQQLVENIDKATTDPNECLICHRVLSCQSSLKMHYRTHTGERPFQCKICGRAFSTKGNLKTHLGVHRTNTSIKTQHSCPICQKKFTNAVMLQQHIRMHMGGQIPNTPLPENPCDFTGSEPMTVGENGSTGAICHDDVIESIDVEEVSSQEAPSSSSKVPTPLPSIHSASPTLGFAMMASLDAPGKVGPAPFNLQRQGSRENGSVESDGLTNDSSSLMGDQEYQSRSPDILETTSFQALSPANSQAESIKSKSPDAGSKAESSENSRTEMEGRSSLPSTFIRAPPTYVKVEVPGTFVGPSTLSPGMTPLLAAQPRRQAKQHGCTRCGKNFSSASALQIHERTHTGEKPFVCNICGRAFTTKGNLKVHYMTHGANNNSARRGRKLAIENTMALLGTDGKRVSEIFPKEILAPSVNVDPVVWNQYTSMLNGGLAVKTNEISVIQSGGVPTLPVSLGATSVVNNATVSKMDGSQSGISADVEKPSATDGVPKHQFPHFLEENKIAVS
# Technique: universal PBM
# Form: double-stranded DNA, one strand shown
# Sample: in vitro
# Concentration: 600 nM
# Setting: 8-mer, flanks averaged, mean of replicates
# Reading: higher = stronger binding
Sequence,E-score
AGTATGCG,-0.101
CTTGGACA,-0.12
AGTAGCTA,0.126
ACCATAGC,-0.115
AAGCGGGA,-0.233
CCGTGGAG,-0.161
AAAACACA,0.165
AAGCTTGC,-0.089
AACCAGTG,-0.162

# Block 2
# Target: RING finger protein unkempt homolog, zinc fingers 1-6, GST-SBP tag (UNK, Homo sapiens, UniProt Q9C0B0, residues 30-357)
# Sequence of UniProt Q9C0B0 (30-357, looked up): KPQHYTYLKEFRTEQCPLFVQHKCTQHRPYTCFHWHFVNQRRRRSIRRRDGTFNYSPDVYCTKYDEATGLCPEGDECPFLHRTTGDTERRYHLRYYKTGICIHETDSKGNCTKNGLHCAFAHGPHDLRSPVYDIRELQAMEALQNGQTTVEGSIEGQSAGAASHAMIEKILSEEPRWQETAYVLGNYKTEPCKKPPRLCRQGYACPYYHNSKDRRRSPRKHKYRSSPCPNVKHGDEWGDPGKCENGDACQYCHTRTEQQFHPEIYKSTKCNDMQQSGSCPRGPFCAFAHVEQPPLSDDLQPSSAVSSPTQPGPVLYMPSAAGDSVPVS
# Technique: RNA Bind-n-Seq
# Form: RNA
# Sample: in vitro
# Concentration: not given
# Setting: RNA with constant flanks, human-mouse chimeric sites, ends assumed
# Relative to: input RNA pool
# Reading: higher = stronger binding
Sequence,bound/input enrichment
GGGAGUUCUACAGUCCGACGAUCAAAGAACUACUGAGGCAAGGCAGCAAAUUUAGGAGAGACAUUUCAACAAUAUUGAUAGAGUUAGGAUUCCAAAUUAAAAAAAAAACUAAGACAUUAUACAUCAACAAAGCCAAUAUCUGGCAACAGAGGAUUGAGCAUCA,17.5 ratio
GGGAGUUCUACAGUCCGACGAUCCUGGCCUGGCCCUCCCCAGGGGCCUCCUUUCGUAUAGUCACUGCUUCUGCAUCAGAUAUUUUUAGCUGCAACUCCCUACUGGGUGGGGCACCCAUUUCAGGCAGAAGGUUUUGGUACCCUCAACAGAGGAUUGAGCAUCA,0.401 ratio
GGGAGUUCUACAGUCCGACGAUCCUGGCCUUCUGAGCAUCUCUAGUGACCUUUCGUAUAGUCACUGCUUCUGCAUCAGAUACUUUCAGCUGCAACUCCCUACUGGGUGGGGCACCCAUUUCAGGCAGAAGGUUUUGGUACCCUCAACAGAGGAUUGAGCAUCA,0.184 ratio
GGGAGUUCUACAGUCCGACGAUCUCUUAACUUAUUCAUUUAACUUAUUUUUAUAGCUAGAGCAAUAUUGUUAGUCUUAGUCAAUAGCUCACAUUUUUUGAGAAGCAUGCCCUCCCUGUCCAUUUGUCUUAUAACAUGACCCAGCAACAGAGGAUUGAGCAUCA,137 ratio

# Block 3
# Target: Histone acetyltransferase KAT6A, both winged helices, GST fusion (KAT6A, Homo sapiens, UniProt Q92794, residues 1-181)
# Technique: protein binding microarray
# Form: double-stranded DNA, one strand shown
# Sample: in vitro
# Concentration: not given
# Setting: 8-mer, flanks averaged, mean of 2 arrays, mostly near background
# Relative to: not given
# Reading: higher = stronger binding
# Construct (chain): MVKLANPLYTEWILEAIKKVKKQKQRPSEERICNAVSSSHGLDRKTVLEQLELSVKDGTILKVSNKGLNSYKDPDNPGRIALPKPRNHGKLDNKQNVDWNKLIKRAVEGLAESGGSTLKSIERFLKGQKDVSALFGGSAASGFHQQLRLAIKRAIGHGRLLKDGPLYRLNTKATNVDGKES
Sequence,E-score
GCTTTGAC,-0.0182
CGGTGGGC,0.0819
CCAAAGCA,-0.117
ACTTCCTG,-0.166
TTACACAA,0.0396
AGTCTTTG,-0.165
ATATTTTC,-0.000355
AGTGCGGA,0.199
TCCCGTCA,0.228
GGGTCACC,0.0447

# Block 4
# Target: Interferon regulatory factor 7, full length, phosphomimetic (IRF7, Homo sapiens, UniProt Q92985, residues 1-503, S101K/S471D/S472D/S475D/S476D/S477D/S483D/S484D/S487D)
# Technique: protein-binding microarray
# Form: double-stranded DNA, one strand shown
# Sample: in vitro
# Concentration: 250 nM
# Setting: 60-bp whole probe
# Added: salmon DNA 0.4 mg/ml
# Relative to: random background probes
# Reading: higher = stronger binding
# Residues (chain): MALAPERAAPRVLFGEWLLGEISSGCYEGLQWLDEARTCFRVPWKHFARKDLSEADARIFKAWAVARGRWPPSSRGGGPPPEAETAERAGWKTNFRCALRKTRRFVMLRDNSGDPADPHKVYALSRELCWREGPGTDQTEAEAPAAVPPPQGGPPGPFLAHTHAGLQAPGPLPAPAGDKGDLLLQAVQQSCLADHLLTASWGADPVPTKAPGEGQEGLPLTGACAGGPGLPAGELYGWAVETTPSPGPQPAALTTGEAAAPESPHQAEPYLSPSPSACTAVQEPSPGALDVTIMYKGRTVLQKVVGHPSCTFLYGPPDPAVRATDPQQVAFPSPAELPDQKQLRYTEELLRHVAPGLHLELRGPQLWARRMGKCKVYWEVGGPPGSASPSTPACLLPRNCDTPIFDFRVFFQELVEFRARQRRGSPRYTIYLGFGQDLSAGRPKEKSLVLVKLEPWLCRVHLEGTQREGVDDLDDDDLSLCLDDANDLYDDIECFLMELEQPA
Sequence,log fluorescence
GCCTAGCACATGGCTTTGCAGATAAATATGTGCTAGGTCTTGATTCGCTTGACGCTGCTG,-0.423 z-score
GCCTAGCACTTAGGGATCGGGTATCGGTTAGTGCTAGTCTTGATTCGCTTGACGCTGCTG,1.05 z-score
GCCTAGCACGACGGTTGCGACTATCGGGACGTGCTAGTCTTGATTCGCTTGACGCTGCTG,-0.321 z-score
GCCTAGCACTTAGAACTGAGTATCGATTGGTGCTAGGTCTTGATTCGCTTGACGCTGCTG,0.859 z-score

# Mixed results
Molecule,target,assay,system,setting,how to read,quantity,value
"PhoQ, residues 284 288 289 292 302 303 TNSAEL","PhoP, residues 12 14 15 18 19 GHCSL (Escherichia coli, UniProt P23836)","Sort-seq, measured: YFP reporter",E. coli,"PhoQ-PhoP variant library, added: 10 µM Mg2+","relative to: high Mg2+ state, higher = stronger signaling",fold induction,12
